Results of several laboratories.
Each numbered part is a random draw from the data of one study; scales do not carry over between parts.

Series 1
Target: Ras GTPase-activating protein-binding protein 1, RRM domain (G3BP1, Homo sapiens, UniProt Q13283)
UniProt Q13283, sequence (whole entry, looked up): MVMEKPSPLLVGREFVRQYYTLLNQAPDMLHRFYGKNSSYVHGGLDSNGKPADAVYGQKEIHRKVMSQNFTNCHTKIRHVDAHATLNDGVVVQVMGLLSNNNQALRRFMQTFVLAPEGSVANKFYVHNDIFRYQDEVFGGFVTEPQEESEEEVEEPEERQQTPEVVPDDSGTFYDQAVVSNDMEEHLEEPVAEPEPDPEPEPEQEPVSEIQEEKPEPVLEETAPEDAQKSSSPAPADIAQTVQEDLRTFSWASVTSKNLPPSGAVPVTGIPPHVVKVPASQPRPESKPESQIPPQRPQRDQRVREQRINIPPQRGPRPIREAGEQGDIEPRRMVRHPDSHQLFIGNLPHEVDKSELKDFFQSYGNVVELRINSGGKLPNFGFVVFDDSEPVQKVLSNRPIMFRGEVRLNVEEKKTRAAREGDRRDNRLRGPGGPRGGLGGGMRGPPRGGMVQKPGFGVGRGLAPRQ
Technique: RNA Bind-n-Seq
Form: RNA
Medium: in vitro
Concentration: 1 µM
Setting: whole 134-nt RNA, ends assumed
Added: 150 mM KCl
Relative to: input library
Reading: higher = stronger binding
All sequences stand within: GGGAGUUCUACAGUCCGACGAUC … UGGAAUUCUCGGGUGUCAAGG
Sequence	log2 enrichment
CAAGUCCUGUGCUACACAUCGUAUGUACCGAAUCGGGGAAAGGGGAGGGGUGGGGAAAGUAUUAUGUUACGCCGUUCGGAUCUGCACUUC	1.18
CCUCAAGUCCUGUGCUACACAUCGUAUGUACCGAAUCGGUGGGUGGGGUGGGGAAAGUAUUAUGUUACGCCGUUCGGAUCUGCACUUCCA	0.0832
UCCUGUGCUACACAUCGUAUGUACCGAAUCGGGUUUGGGAAAAAAAGGGAAAAAAAGGGAAAGUAUUAUGUUACGCCGUUCGGAUCUGCA	0.279
CCUCAAGUCCUGUGCUACACAUCGUAUGUACCGAAUCGGGGAGGAGGGAGGGGAAAGUAUUAUGUUACGCCGUUCGGAUCUGCACUUCCA	0.0821
AGUCCUGUGCUACACAUCGUAUGUACCGAAUCGGGGUUUGGGGUUUGGGGUUUGGGGAAAGUAUUAUGUUACGCCGUUCGGAUCUGCACU	1.89
UCCUGUGCUACACAUCGUAUGUACCGAAUCAAAUUUAAAUUUUUUUAAACCCCCCCAAAAAAGUAUUAUGUUACGCCGUUCGGAUCUGCA	-0.845
AAGGCACGUAAGUUUAAGCUUUUUUUUUUUUUAAGUUAAUGGGAAAAAUUUGAGACGCAAUACCAAUACUUAGGAUUUUGGUCUUGGUGU	-0.724
UGUGUGCAUUCCCUGCGCCAAGGGCUUCCCCAGCUCUGAGCAGCUCAAUGCGCACGUGGAGACUCACACGGAGGAAGAGCUGUUCAUCAA	-0.271
CUGUGCUACACAUCGUAUGUACCGAAUCGGGUUUUUUUGGGGUUUUUUUGGUUUUUUUGGGAAAGUAUUAUGUUACGCCGUUCGGAUCUG	-0.176

Series 2
Target: Centromere-binding protein 1, full length, N-terminal tag (CBF1, Saccharomyces cerevisiae, UniProt P17106, residues 1-351)
UniProt P17106, sequence (whole entry, looked up): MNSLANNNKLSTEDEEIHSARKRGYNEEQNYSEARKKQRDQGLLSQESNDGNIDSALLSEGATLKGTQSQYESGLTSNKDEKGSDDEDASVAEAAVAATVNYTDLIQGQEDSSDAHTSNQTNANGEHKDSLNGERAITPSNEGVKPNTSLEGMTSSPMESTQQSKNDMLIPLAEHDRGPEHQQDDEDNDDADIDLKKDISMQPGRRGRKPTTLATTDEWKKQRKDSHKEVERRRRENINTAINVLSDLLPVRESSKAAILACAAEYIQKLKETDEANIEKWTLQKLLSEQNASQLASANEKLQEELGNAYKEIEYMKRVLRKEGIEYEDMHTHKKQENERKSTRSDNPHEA
Technique: protein-binding microarray
Form: double-stranded DNA, one strand shown
Medium: in vitro
Concentration: 0.8 µM
Setting: whole 60-bp probe, no competitor
Reading: higher = stronger binding
All sequences stand within: … GTCTTGATTCGCTTGACGCTGCTG
Sequence	fluorescence intensity [a.u.]
CTATTGATAGCGACGGCCGTGACCATTGCAAGATTC	612
CCTAACTACTATAGACACGAAGAATAGCTTCGTACA	501
GAACCACTCATAAATCACGACGCTACGTAGTTCTAG	608
CTAGTTTAGTAGAACCTCGTGAAACTTACATTTTTC	564
CCTAACTACTATAACGTGGCCGCATAGCTTCGTACA	539
CTACCAGTTAGGTACCATGTGGCATGCTGTTTTTTC	620
CTACGTGTGCGTGCGCACGTCCCACACAGACAATTC	752
CTACACCTACTGCATCACCTACTTGTATAATCCTTC	560
GAACGGGTAATAGTACACGGGATGAAGAGACTTTAG	662
GAATGTAATCAATTGCATGTGCCAAGGATGATCTAG	693
GAATTTTATATACATCAGGTCAAACATAAACCATAG	552
CCTAACTACTATATTCACGCTTAATAGCTTCGTACA	510
GAACTCCAAACAATTCATGTCACTAAGCCCGGTTAG	570
CTACGGTCGCTTACATGCGTGATATTTAGGGGATTC	537
CTAGCTCCTACACATCAGATCGTCAAGTACATTTTC	547
CTAAAGTTGAAGGTGCACGCTTGAGGCGCTCCTTTC	472
CCTAACTACTATACCCACGTCATATAGCTTCGTACA	558
CTATCTACGTTCTCAATGGTGGTGTTGAGCTCTTTC	534
GAACCTCTAAATAACAGCATGATGCAACAGCTCTAG	529

Series 3
Target: RNA binding protein fox-1 homolog 2, RRM domain, GST-SBP tag (RBFOX2, Homo sapiens, UniProt O43251-10, residues 100-194)
Technique: RNA Bind-n-Seq
Form: RNA
Medium: in vitro
Concentration: 365 nM
Setting: natural RNA segment, single round, ends assumed
Relative to: no-protein control
Reading: higher = stronger binding
All sequences stand within: GGGAGUUCUACAGUCCGACGAUC … UGGAAUUCUCGGGUGCCAA
Target sequence (chain): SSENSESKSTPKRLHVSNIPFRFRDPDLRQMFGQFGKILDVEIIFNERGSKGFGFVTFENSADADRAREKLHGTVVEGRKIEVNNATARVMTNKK
Sequence	RBNS enrichment (R)
GAAAGUUUCUUUUUCUUUUGUGUUAGUCUUGCAAGUUUGUCUACCAGUAAAAGAGCAAAGUUUCCUUCCUUUCUUGUUUUCUUUUUAUUUUUUCUUUUGUUCCCUCUUCC	24.2
ACAGUUGGCUUAGCAGGGAGGAUCUGUAGAGCUCUCGAUGAUCCUUCCUCCAUGUGUGUCCUGUGAGGAUUUUGCUCAUGAGUCAUGCAGGCAGUGACAGUGAACUGUAA	0.381
GUAAAUAUGGAAAUGCCACAUUGGUUAAGUGCCAUCAAUUGUAAUGCAGUGUGUCAUUUGAAAAGAGAUUUGAAGAACUGACAGCUUAAAGCCCAAGCGGGAAACCCGCC	0.472
GCAUUGUGAGUUGGGGUGAUGCCUGUGGUGCCCCCAACAGGCCUGGAGUAUACACUCUGACUUCUACCUAUGCUUCCUGGAUCCACCACCAUGUGGCAGAGCUCCAGCCU	0.278
GGGUUCUGGCUGCCCCAACCUGCUGAAGGGCAGAGGUGGAGGGUGGGGGGCGCUGAGUAGGGACUCAGGGCCAUGCCUGCCCCCCUCAUCUCAUUCAAACCCCACCCUAG	0.372
GGGGGCAGUGCCGUCAUCUCCCUGGAGGGCAAGCCUUUGUGAGCCCCUUCUGGCCCCCUGCCUGGAGCAUCUGGCAGCCCCACACCUGCCCUUGGGGGUUGCAGGCUGCC	0.701
GUGGCACAAUCAGCUCACUGCAACCCCUCCUCCUAGGUUCAAGCGAUUGAGUAGCUGAGAUUACAGGCAUGCAUCACUAUGCCUGGCUUUUUGUAUUUUUUAGUAGAGAU	1.67
GGUUCCUCUAUUGGCUCUGCUCAAAUGUUGCAGGAUACAUAGCCCCAAAGAUGGUCUAGGAGCAAUCUAAGCUGUGUUACUCCAAAGGACAUGAAAAAGCUCAAGAGUAA	0.35

Series 4
Target: Sal-like protein 4, full length isoform A (SALL4, Homo sapiens, UniProt Q9UJQ4, residues 1-1053)
UniProt Q9UJQ4, sequence (whole entry, looked up): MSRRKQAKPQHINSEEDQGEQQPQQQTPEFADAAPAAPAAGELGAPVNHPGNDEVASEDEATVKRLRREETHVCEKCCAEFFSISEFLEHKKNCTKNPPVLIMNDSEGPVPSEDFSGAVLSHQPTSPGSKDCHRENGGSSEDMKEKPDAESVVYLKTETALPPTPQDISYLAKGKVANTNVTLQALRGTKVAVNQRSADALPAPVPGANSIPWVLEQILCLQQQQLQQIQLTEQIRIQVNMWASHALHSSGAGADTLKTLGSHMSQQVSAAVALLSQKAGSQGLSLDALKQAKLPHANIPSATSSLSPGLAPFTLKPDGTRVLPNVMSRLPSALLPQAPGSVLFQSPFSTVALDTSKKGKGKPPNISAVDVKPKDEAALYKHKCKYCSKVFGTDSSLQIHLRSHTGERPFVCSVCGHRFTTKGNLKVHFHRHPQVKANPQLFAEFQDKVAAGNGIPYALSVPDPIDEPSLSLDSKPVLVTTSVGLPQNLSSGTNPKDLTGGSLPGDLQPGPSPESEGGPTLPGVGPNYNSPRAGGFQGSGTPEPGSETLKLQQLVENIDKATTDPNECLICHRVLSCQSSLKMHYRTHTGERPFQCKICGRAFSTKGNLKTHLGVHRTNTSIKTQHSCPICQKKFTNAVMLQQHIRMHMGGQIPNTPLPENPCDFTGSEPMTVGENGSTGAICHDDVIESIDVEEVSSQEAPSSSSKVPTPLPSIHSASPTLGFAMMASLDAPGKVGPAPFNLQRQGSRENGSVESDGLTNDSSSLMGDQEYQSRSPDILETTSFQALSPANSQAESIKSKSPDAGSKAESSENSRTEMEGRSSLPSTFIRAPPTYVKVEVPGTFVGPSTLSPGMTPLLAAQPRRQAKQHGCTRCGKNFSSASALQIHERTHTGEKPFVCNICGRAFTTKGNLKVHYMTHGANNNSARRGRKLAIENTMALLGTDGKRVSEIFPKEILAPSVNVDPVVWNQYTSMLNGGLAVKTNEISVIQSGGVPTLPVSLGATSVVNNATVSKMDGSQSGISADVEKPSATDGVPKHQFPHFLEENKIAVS
Technique: universal PBM
Form: double-stranded DNA, one strand shown
Medium: in vitro
Concentration: 600 nM
Setting: 8-mer, flanks averaged, mean of replicates
Reading: higher = stronger binding
Sequence	E-score
CGTGGCTC	-0.325
CTCATGTC	-0.0766
GAGGGAAC	-0.269
GTGATAGA	0.147
CCCCTGAC	-0.206
AGGTTGGC	-0.219
CTTCGTGA	-0.0867
TAGGACTA	0.0437
CAGGTATC	-0.0342
CGAACGCC	-0.349
CGAGAATA	0.149
GGAACTCC	-0.221
ACGACAGG	-0.119
AGAGCCGC	-0.362
ACGCTGAG	-0.154
ACTGATCG	-0.137
CTTGCTGC	-0.127
GGTACGCA	0.0232
ACGGCCAA	-0.103
CATGGTAA	0.179

Series 5
Target: Histone acetyltransferase KAT6A, both winged helices, GST fusion (KAT6A, Homo sapiens, UniProt Q92794, residues 1-181)
Technique: protein binding microarray
Form: double-stranded DNA, one strand shown
Medium: in vitro
Concentration: not given
Setting: 8-mer, flanks averaged, mean of 2 arrays, mostly near background
Relative to: not given
Reading: higher = stronger binding
Target sequence (chain): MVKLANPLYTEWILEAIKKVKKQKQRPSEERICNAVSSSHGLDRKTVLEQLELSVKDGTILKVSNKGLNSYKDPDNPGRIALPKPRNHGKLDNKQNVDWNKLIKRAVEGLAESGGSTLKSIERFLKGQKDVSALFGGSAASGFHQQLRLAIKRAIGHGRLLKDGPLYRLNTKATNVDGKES
Sequence	E-score
AAAAATCC	-0.0181
AGTACTCA	-0.182
TATTCGAA	-0.104
ATCATGTC	0.00564
AGGCCGAG	0.0688
CAGGCTGG	-0.143
GCGACCAC	0.211
CTTAGAAG	-0.0405
ACGCGTAA	0.312
AATCGTGG	-0.177
GTTAAAGA	0.0553
AAGTACAA	-0.0681
ACCCATCA	-0.15
ACGAGGCA	-0.136
AATCTCGC	0.0543
ACGGTTGC	0.151
TAGCGTGA	0.0948

Excerpt of the above (series 5):
Sequence	E-score
ATCATGTC	0.00564
ACGAGGCA	-0.136
AGGCCGAG	0.0688
GCGACCAC	0.211
GTTAAAGA	0.0553
